Measurements from different studies.
Every numbered part comes from another study and shows a few of its results, in no order.

Series 1 — technique: RNA Bind-n-Seq; form: RNA; sample: in vitro; tested at: 20 nM; setting: 6-mer, flanks averaged, single round; with: 150 mM LiCl; reference: input library; reading: higher = stronger binding
Target: TAR DNA-binding protein 43, full length, His tag (TARDBP, Homo sapiens, UniProt Q13148, residues 1-414)
Oligonucleotide | 6-mer enrichment (R)
GUUGAA | 1.07
CAUGGC | 0.918
UGGUUC | 0.991
CUUGGC | 1
CCGUCG | 0.936
CUCCAU | 0.96
CCAGGA | 0.895
CAACAC | 0.833
CCGAUG | 0.899
UAAUCA | 0.864
UCUGCA | 0.88
GGUGCU | 1.07
AGUUGU | 1.17
GAGAAG | 1.06
AUGAGG | 1.14
UGAUUU | 1.01

Series 2 — technique: protein-binding microarray; form: double-stranded DNA, one strand shown; sample: in vitro; tested at: 2540 nM top; setting: 60-bp whole probe; with: salmon DNA 0.4 mg/ml; reference: random background probes; reading: higher = stronger binding; all sequences stand within: GCCTAGCAC … GTCTTGATTCGCTTGACGCTGCTG
Target: Interferon regulatory factor 3, full length, phosphomimetic (IRF3, Homo sapiens, UniProt Q14653, residues 1-427, S386D/S396D/S398D/S402D/T404D/S405D)
Target sequence (chain): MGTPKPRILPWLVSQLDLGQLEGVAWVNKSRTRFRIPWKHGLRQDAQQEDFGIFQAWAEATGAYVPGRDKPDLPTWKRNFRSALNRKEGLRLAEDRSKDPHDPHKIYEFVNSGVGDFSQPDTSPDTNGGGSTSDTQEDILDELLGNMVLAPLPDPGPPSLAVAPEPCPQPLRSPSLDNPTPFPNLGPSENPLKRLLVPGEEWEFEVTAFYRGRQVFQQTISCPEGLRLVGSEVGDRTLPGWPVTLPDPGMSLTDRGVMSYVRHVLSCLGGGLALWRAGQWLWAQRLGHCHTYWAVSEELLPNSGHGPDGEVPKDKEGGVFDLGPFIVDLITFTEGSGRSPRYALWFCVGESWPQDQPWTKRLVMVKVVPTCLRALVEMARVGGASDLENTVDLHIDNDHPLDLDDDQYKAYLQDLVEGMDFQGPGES
Oligonucleotide | fitted relative affinity [z-score]
CTGGGTATTTTTCTAAACCAGTGCTAG | 0.659
GACGATACCAGTTTCGAGACGTGCTAG | 2.35
TTAGATATCAGTCTCGATCAGTGCTAG | 1.15
TTAGAACTGGGGGTTCGATTAGTGCTA | -0.214
GACGGACTGGACAATCGGGACGTGCTA | -0.455
TTAGGTATCGACACTTGGTTAGTGCTA | 0.298
AAACAAGTTTCACGTCTTATAGTGCTA | 1.68
GACGATCTCAGACTGGAGCCGTGCTAG | 0.234
GAAAAATCTGGAACTAACAGGTGCTAG | 0.0876
TCACATCTAGTTCTGCTACTGTGCTAG | 0.701
GCAAGAGGAAAGGAACATCAGTGCTAG | 0.0668
TTAGGACTGGGGAATCGGTTAGTGCTA | -0.794
AATAGCTTTTCATTTTTTAACGTGCTA | 1.68
CTAGATATCAGTCTCGATTAGTGCTAG | 1.41
TCATTTTTCTAATTGAAACTGTGCTAG | 2.38
TCATTTTTTTCATTATTACTGTGCTAG | 1.5
TTAGATCACAGACTGGATTAGTGCTAG | -0.0218
GACGATTTGAGTATCGAGACGTGCTAG | 0.507
TTAGGTCTCCTTCTCTTTTAGTGCTAG | 4.04

Series 3 — technique: RNA Bind-n-Seq; form: RNA; sample: in vitro; tested at: 365 nM; reference: no-protein control; reading: higher = stronger binding
Target: RNA binding protein fox-1 homolog 2, RRM domain, GST-SBP tag (RBFOX2, Homo sapiens, UniProt O43251-10, residues 100-194)
Setting: natural RNA segment, single round, ends assumed
All sequences stand within: GGGAGUUCUACAGUCCGACGAUC … UGGAAUUCUCGGGUGCCAA
Residues (chain): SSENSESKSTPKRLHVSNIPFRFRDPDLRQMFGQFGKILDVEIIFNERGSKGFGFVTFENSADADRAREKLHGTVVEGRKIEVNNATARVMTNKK
Oligonucleotide | RBNS enrichment (R)
CUGCUGGCAGCUCCUCCCCAGCAAGGCUGGGCUAGAAGGCAGCUUUAGAAGUGAGCCCCUCUAAUGCCAAGGGAGCGGCUCUGUGCCCAGGAACCCAAGGGGAGGCUAGG | 0.817
UAUACGUGGCAGUAGUUCAGCAAUAAUACAUCACAACAUUGCAUCAAUCAUGGGCUCCCACCAAUAAACACUUUACGGGUGGGUGUGUGUGUGUGUGCGCGCGCGCGCAU | 0.399
CGCCCAGCCACAUGUGUCUGCCUGACCCGUACACACCAGGGGUUCCGGGGUUGGGAGCUGAACCAUCCCCACCUCAGGGUUAUAUUUCCCUCUCCCCUUCCCUCCCCGCC | 0.813
GAACUCUUGCCCUCCCUCUCAUUCCCAUCCUUCCUGGUACUGCAGUCAACCAAAGAUGGCAUGACUUACCUGCGCAGAUUUGGAAGCAUUGAACUUAGAGUGCUGGCUCU | 0.773
UUCUACACAUAUGCUUUCUGGCAGCGAGUUUAUUGCCAGAUUUUAAACAGGGAGUUAUGUGGUGCUUGUGGCGCUUUCAGAACCCAAAGAUUUGUAGUCUGGAAUCAUGU | 1.8
AGGUAUGGGGCAGUCCAGUUUAUAACUUUGCAACCAAACCCAAGCCUGCUCUUUUUGAAGCAGCUGAUUGGAGAGUAAAGAUUUUCAUUCAAUAAAGCUAAACCUCAGGG | 0.32
UCUCUGAGGGGCGCCAUCUUGACCUUGUGGUUCUCUCUGCAUCUUGACCUCUGUCUUGACAGUGCCCUCCACAACUGUGUCCUGUGUGGGAGACUCACCCCACACGCCCU | 3.7
UUCGUCUCCAAGGUCAUGCUGAAUGCCGGCCAAAAGAGAUGAACCCUGCCCCUUGCCCAGGGCCAGUGCCAUGGGGAAGGGGCUUGUGGGGAGGGGACCCAUGAAUCCUG | 0.295

Series 4 — technique: aptamer microarray, sandwich; form: DNA with 2'F-ANA; sample: in vitro; tested at: 200 nM; with: Cy3 exosite-II aptamer, 400 nM; reading: higher = stronger binding; oligonucleotide: GGTTGGTGTGGTTGG
Target: Prothrombin, mature alpha-thrombin (F2, Homo sapiens, UniProt P00734)
Setting: whole 15-mer aptamer, many near background
Modification | mean fluorescence intensity
2'F-ANA at 1 3 5 7 9 10 13 14 | 57.6 a.u.
2'F-ANA at 1 4 5 8 11 14 | 45.9 a.u.
2'F-ANA at 1 2 4 5 9 11 13 | 56.8 a.u.
2'F-ANA at 4 6 7 8 11 12 14 15 | 105 a.u.
2'F-ANA at 6 7 8 9 11 13 | 408 a.u.
2'F-ANA at 2 4 5 6 7 9 11 13 14 | 45.8 a.u.
2'F-ANA at 2 5 6 8 9 10 11 12 | 51.9 a.u.
2'F-ANA at 2 4 6 7 8 10 13 14 | 63.8 a.u.
2'F-ANA at 1 3 4 5 6 9 10 11 14 15 | 50.6 a.u.
2'F-ANA at 1 5 6 8 9 11 13 14 15 | 47.9 a.u.
2'F-ANA at 1 2 6 7 9 10 11 | 55.3 a.u.
2'F-ANA at 1 3 5 7 9 10 12 14 | 46.7 a.u.
2'F-ANA at 3 4 8 9 10 11 12 14 15 | 178 a.u.
2'F-ANA at 1 3 4 5 6 9 10 11 13 14 15 | 87.3 a.u.
2'F-ANA at 1 4 9 15 | 134 a.u.
2'F-ANA at 1 3 4 6 8 11 13 14 | 63.1 a.u.
2'F-ANA at 3 4 5 6 7 8 9 12 13 14 15 | 53.7 a.u.
2'F-ANA at 1 2 5 6 7 9 10 12 13 14 15 | 50.2 a.u.

Some of these lines once more (series 1):
Oligonucleotide | 6-mer enrichment (R)
CUUGGC | 1
CCGUCG | 0.936
CUCCAU | 0.96
CCAGGA | 0.895
CAACAC | 0.833
CCGAUG | 0.899
